Experimental data from different studies.
Parts stem from different laboratories: compare values within a part only.
UniProt P53350, sequence (whole entry, looked up): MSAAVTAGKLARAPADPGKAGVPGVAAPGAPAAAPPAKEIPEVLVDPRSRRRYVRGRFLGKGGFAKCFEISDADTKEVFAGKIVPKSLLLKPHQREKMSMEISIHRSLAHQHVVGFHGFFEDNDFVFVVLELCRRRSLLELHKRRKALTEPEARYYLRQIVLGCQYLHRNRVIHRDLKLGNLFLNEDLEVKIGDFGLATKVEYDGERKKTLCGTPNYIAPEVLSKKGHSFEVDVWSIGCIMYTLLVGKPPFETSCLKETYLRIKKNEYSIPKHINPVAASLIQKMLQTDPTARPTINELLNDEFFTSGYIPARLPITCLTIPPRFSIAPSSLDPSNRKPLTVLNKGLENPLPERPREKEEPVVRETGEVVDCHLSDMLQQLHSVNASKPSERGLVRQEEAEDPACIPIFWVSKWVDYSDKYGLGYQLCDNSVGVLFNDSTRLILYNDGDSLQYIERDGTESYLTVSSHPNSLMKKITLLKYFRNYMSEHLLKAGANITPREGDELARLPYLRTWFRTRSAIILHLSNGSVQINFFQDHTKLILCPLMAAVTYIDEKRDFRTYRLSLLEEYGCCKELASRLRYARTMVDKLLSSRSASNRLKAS
UniProt Q9H2K8, sequence (whole entry, looked up): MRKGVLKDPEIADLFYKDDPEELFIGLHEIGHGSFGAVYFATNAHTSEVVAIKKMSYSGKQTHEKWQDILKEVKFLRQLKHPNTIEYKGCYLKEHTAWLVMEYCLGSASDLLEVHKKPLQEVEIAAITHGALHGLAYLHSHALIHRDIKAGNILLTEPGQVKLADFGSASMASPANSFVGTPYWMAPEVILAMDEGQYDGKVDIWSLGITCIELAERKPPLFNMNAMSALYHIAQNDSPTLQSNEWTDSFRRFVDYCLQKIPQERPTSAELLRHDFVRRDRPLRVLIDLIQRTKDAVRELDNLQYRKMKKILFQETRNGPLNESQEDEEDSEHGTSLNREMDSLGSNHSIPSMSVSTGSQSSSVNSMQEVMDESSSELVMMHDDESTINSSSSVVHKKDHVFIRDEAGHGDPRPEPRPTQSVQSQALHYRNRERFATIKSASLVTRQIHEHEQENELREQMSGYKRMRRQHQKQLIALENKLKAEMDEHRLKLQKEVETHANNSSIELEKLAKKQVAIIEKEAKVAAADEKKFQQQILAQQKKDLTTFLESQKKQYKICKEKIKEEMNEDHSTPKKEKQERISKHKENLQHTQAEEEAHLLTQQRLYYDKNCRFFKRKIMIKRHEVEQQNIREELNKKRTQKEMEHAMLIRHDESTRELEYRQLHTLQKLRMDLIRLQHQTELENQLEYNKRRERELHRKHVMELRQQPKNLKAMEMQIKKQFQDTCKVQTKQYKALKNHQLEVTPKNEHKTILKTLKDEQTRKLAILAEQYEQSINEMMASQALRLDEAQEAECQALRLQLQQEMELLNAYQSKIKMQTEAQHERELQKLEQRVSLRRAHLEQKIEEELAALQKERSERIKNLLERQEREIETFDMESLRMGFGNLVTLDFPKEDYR
UniProt P08588, sequence (whole entry, looked up): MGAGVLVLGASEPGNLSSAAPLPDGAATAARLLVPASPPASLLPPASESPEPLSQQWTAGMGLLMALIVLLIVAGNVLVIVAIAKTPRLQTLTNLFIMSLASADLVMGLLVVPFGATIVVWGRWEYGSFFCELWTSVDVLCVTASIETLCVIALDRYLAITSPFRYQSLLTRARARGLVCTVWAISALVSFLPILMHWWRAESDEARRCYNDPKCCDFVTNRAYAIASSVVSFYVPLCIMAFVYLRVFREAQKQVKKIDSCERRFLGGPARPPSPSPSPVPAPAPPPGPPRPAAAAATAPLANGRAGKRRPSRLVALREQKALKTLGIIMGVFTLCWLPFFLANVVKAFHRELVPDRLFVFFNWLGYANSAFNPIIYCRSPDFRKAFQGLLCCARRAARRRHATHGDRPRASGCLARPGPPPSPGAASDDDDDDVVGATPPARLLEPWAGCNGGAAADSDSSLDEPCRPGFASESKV
UniProt Q9HBH9, sequence (whole entry, looked up): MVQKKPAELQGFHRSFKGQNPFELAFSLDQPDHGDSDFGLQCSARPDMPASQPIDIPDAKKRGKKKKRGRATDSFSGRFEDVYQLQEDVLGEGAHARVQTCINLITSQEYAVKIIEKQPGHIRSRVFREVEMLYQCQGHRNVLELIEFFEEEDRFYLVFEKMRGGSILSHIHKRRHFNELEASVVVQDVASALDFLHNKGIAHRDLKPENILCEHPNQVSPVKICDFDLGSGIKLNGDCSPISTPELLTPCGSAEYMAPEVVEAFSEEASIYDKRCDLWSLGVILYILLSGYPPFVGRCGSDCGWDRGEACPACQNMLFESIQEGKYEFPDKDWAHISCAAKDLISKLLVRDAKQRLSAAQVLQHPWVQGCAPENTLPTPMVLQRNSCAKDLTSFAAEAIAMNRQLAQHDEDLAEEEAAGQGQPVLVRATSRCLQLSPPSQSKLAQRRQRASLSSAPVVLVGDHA
UniProt Q9H1R3, sequence (whole entry, looked up): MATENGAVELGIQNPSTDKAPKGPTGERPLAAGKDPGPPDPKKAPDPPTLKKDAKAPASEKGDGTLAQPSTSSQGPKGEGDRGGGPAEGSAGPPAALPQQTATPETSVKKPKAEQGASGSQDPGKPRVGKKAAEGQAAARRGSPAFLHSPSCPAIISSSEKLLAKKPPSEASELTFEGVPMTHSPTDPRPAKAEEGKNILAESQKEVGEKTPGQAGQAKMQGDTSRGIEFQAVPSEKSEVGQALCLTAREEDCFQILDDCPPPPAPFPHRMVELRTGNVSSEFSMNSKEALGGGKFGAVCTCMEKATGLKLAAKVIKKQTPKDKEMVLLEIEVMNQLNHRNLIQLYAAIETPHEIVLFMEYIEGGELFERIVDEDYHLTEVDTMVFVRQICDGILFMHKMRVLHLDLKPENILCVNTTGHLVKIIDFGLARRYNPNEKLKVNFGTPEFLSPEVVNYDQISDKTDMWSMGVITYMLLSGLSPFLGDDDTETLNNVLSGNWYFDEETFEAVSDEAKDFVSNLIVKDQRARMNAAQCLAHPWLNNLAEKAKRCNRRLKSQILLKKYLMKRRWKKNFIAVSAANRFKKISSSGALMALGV
UniProt Q15375, sequence (whole entry, looked up): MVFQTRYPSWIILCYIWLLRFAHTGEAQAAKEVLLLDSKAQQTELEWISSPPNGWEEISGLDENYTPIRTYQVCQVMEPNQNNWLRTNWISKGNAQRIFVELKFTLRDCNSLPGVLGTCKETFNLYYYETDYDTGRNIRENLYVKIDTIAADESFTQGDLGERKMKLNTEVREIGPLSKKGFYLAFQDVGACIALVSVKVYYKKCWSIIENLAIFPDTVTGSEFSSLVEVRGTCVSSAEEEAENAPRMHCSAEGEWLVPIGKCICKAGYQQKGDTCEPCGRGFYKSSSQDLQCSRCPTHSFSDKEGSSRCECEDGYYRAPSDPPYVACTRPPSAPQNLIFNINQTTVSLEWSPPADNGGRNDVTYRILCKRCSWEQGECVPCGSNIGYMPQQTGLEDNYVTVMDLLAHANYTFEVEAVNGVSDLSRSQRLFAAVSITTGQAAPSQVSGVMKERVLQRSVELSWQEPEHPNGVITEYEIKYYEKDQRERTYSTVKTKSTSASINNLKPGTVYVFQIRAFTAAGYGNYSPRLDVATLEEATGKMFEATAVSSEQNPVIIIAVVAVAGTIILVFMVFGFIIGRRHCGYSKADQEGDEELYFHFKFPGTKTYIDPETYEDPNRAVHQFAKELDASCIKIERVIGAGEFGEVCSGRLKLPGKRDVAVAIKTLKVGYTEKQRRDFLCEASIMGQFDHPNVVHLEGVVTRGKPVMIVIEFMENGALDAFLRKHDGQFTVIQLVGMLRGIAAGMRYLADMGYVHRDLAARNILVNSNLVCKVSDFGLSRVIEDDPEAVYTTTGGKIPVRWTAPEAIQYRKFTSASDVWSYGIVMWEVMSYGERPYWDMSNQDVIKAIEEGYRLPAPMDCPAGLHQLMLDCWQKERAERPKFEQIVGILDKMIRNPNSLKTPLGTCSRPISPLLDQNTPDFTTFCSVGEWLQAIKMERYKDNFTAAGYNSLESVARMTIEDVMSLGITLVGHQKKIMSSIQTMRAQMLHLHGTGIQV
UniProt Q2M2I8, sequence (whole entry, looked up): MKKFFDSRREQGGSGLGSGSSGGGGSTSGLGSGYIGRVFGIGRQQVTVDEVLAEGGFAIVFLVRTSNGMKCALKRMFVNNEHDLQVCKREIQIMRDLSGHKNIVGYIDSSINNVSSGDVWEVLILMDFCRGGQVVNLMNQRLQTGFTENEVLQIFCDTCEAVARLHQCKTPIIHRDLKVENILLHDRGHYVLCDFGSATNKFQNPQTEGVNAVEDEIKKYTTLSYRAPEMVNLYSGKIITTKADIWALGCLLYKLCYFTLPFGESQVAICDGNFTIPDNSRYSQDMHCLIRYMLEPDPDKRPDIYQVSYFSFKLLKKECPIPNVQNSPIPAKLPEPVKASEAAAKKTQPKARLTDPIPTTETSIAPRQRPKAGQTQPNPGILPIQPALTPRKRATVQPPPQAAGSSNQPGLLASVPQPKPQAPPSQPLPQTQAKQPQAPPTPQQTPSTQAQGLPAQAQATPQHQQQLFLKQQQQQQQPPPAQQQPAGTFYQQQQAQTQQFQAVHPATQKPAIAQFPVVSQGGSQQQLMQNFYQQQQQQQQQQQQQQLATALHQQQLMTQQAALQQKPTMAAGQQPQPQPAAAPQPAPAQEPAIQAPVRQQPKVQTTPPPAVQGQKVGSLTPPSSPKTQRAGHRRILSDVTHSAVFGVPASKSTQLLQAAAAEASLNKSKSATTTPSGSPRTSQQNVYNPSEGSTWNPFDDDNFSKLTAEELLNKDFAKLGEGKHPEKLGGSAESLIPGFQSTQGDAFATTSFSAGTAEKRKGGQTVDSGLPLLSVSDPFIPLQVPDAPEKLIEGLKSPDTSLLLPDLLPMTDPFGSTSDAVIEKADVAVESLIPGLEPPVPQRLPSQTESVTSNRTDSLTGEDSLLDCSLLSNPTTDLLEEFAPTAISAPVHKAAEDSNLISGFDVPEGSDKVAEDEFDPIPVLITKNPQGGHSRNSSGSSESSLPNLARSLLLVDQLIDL

Set 1 — technique: RNA Bind-n-Seq; form: RNA; medium: in vitro; tested at: 365 nM; reference: no-protein control; reading: higher = stronger binding
Target: RNA binding protein fox-1 homolog 2, RRM domain, GST-SBP tag (RBFOX2, Homo sapiens, UniProt O43251-10, residues 100-194)
Setting: natural RNA segment, single round, ends assumed
All sequences stand within: GGGAGUUCUACAGUCCGACGAUC … UGGAAUUCUCGGGUGCCAA
Residues (chain): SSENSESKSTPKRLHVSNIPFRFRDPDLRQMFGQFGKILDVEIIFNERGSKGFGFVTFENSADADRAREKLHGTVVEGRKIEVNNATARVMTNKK
Oligonucleotide	RBNS enrichment (R)
AUGUAGCUAUGGCUGUCCUUGAAUUCUCUCUGUAAACCAGGCUGCCCUUGAACUUGUGAUCCUUCUGCCUCAGUUGCCUCCCAAAUUAUAGGGUUAUGUCACCAACUUGC	0.698
CAGAUCCUGCGCACCACGCCCCCUCCCCCAAGUGCCCUCUGCCGAGCCCGUCCUGGUAUUGACUUUGUGGCUGAGUUCCGAGGUGCCUUUCCCGGAUCCUCCUCGCUGGG	0.269
GACCUGCUCUAGCGAGAGCUGAGCAUGUGUCCUCCACUAGAUGAGGCUGAGUCCAGCUGUUCUUUAAGAACAGCAGUUUCAGCUCUGACCAUUCUGAUUCCAGUGACACU	0.211
CCAGCUGUUAGAGGACAGAGCCAGCUCAGUAGGACCUCCUGCUCCUCCCCCCGGCUUCGUGCCCUUUGGAUGACACAAAAACUUCAUACACCAGUGACUGUCGGGCAGGG	0.377
GUACUGAGCAGUGAUAUUCUUUGUUAAUUUGGACCAUUUUCCUGCAUUGGGUGAUCAUUCACCAGUACAUUCUCAGUUUUUCUUAAUAUAUAGCAUUUAUGGUAAUCAUA	0.897
GGGGUACUGAGUUCCCUGGUCCUUUGGCUGUGUGUGCAGCGUGCAGAUUUCGGGACACCGAAACUUUUACCUCAACUUAAGGGAAUAAAAACAAACAAACAAAAAAAGAU	0.461
UGCUGCCUCCCCAGCAGGAACAAUAGUCAUAAAUGCACUUUUCACACUAAAGGUUUCUUUAUUAGUUCUCCAGUUAAACCUAGAUCCCUCCCUGGUAGAUUGCGAACUCA	0.807
AGCUGGAAUUUAUCUAAUCUAUUUUUGUGUUUAAAAAAGCUGUACCUACCAAAUAAAUAAAUAGUUUAUAAAAUGUAUUACUUAAGGUAUUAGCUGAGUUUAGAGUACUU	0.431

Set 2 — tested at: 1 µM
Structure (SMILES): O=S(=O)(NC1CCC(c2cc(F)ccc2F)(S(=O)(=O)c2ccc(Cl)cc2)CC1)C(F)(F)F (centres unmarked)
target	assay	remaining binding
MYLK2 (Homo sapiens, UniProt Q9H1R3)	cell-free assay, competition with immobilised ligand	91%
EPHA7 (Homo sapiens, UniProt Q15375)	cell-free assay, competition with immobilised ligand	100%
STK36 (Homo sapiens, UniProt Q9NRP7)	cell-free assay, competition with immobilised ligand	100%
FLT3 (Homo sapiens, UniProt P36888, D835V/ITD)	cell-free assay, competition with immobilised ligand	97%
Tyrosine-protein kinase ABL1, non-phosphorylated (ABL1, Homo sapiens, UniProt P00519, F317L)	cell-free assay, competition with immobilised ligand	100%
MET (Homo sapiens, UniProt P08581, M1250T)	cell-free assay, competition with immobilised ligand	84%
CSNK2A2 (Homo sapiens, UniProt P19784)	cell-free assay, competition with immobilised ligand	99%
AAK1 (Homo sapiens, UniProt Q2M2I8)	binding	96%
CSNK1A1L (Homo sapiens, UniProt Q8N752)	cell-free assay, competition with immobilised ligand	100%
DMPK (Homo sapiens, UniProt Q09013)	cell-free assay, competition with immobilised ligand	100%
MET (Homo sapiens, UniProt P08581, Y1235D)	cell-free assay, competition with immobilised ligand	97%
MKNK2 (Homo sapiens, UniProt Q9HBH9)	cell-free assay, competition with immobilised ligand	57%
PLK1 (Homo sapiens, UniProt P53350)	cell-free assay, competition with immobilised ligand	100%
TAOK3 (Homo sapiens, UniProt Q9H2K8)	cell-free assay, competition with immobilised ligand	100%
TXK (Homo sapiens, UniProt P42681)	binding, competition with immobilised ligand	99%

Set 3 — technique: Spec-seq; form: double-stranded DNA, one strand shown; medium: in vitro; tested at: not given; setting: whole probe, mean of replicates; reference: not given; reading: lower = stronger binding; all sequences stand within: GAGTCGTCTCGTCAGCAC … CCGTAGAGCACTCAGGTC
Target: POU, POU domain (Salpingoeca helianthica)
Target sequence (chain): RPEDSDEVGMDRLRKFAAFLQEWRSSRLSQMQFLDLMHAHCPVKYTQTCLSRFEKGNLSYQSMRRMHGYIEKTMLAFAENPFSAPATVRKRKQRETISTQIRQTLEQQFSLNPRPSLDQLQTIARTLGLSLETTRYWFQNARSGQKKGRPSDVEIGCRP
Oligonucleotide	relative binding energy
ATGCGGTC	1.42 ln ratio
ATTCGAAT	0.912 ln ratio
CTGATAAT	0.176 ln ratio
ATGCAATG	1.12 ln ratio
ATAACTAT	-0.331 ln ratio
TGTTTAAT	-0.482 ln ratio
TATCTAAT	0.788 ln ratio
GTTTTAAT	-0.179 ln ratio

Mixed results
Structure (SMILES)	tested on	assay	test system	setting	how to read	endpoint	value
Cc1cc(C)nc(N2N=C(c3ccccc3)CC2=O)n1			mouse, microsomes or S9	2 µM, 0.5 h		remaining compound	79.9%
O=C(Nc1ccc(-c2ccncc2)cc1)N[C@H](CO)c1ccccc1	mouse MPNST tumor cells	high-content immunofluorescence imaging, measured: nuclear SOX9		10 µM, 12 h, mean of 2 replicates	reference: DMSO control, higher = more nuclear SOX9	nuclear SOX9 intensity	119 % of DMSO
Cc1cc(F)ccc1-c1n[nH]c2ncc(-c3ccsc3)nc12	ADRB1 (Homo sapiens, UniProt P08588)	antagonist				IC50	≥ 100 µM
COc1ccc(S(=O)(=O)Nc2ncccn2)cc1			mouse, microsomes or S9	2 µM, 0.5 h		remaining compound	67.1%

Repeated from above (set 2):
target	assay	remaining binding
MET (Homo sapiens, UniProt P08581, M1250T)	cell-free assay, competition with immobilised ligand	84%
CSNK2A2 (Homo sapiens, UniProt P19784)	cell-free assay, competition with immobilised ligand	99%
AAK1 (Homo sapiens, UniProt Q2M2I8)	binding	96%
CSNK1A1L (Homo sapiens, UniProt Q8N752)	cell-free assay, competition with immobilised ligand	100%
